Measurements collected from several papers.
Numbered parts are unrelated; each lists some results of a single study.

Block 1
Target: Interferon regulatory factor 7, full length, phosphomimetic (IRF7, Homo sapiens, UniProt Q92985, residues 1-503, S101K/S471D/S472D/S475D/S476D/S477D/S483D/S484D/S487D)
Sequence of UniProt Q92985 (whole entry, unmodified, looked up): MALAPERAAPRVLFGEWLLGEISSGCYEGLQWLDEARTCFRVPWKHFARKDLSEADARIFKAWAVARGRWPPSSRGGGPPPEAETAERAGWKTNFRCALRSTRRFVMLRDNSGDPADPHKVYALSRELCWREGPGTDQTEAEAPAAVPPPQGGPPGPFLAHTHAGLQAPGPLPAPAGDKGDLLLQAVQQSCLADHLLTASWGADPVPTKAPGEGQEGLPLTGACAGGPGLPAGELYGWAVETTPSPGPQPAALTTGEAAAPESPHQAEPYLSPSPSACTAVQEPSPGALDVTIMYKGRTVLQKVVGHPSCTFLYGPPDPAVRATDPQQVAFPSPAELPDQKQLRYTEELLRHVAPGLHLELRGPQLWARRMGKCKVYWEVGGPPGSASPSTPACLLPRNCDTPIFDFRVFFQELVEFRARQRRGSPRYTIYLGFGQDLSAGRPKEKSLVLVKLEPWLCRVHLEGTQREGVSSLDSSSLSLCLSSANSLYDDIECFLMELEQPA
Technique: protein-binding microarray
Molecule type: double-stranded DNA, one strand shown
Sample: in vitro
Tested at: 250 nM
Notes: 60-bp whole probe
Added: salmon DNA 0.4 mg/ml
Baseline: random background probes
Direction: higher = stronger binding
Endpoint: log fluorescence
GCCTAGCACGTTTGTATATATTTTAACCCGTGCTAGGTCTTGATTCGCTTGACGCTGCTG: 0.402 z-score
GCCTAGCACATAGGTTTCCTTTTCCTTTAGTGCTAGGTCTTGATTCGCTTGACGCTGCTG: 6.66 z-score
GCCTAGCACTTCTCTCTGGCCCTCCTGAGGTGCTAGGTCTTGATTCGCTTGACGCTGCTG: 0.015 z-score

Block 2
Target: Sal-like protein 4, full length isoform A (SALL4, Homo sapiens, UniProt Q9UJQ4, residues 1-1053)
Sequence of UniProt Q9UJQ4 (whole entry, looked up): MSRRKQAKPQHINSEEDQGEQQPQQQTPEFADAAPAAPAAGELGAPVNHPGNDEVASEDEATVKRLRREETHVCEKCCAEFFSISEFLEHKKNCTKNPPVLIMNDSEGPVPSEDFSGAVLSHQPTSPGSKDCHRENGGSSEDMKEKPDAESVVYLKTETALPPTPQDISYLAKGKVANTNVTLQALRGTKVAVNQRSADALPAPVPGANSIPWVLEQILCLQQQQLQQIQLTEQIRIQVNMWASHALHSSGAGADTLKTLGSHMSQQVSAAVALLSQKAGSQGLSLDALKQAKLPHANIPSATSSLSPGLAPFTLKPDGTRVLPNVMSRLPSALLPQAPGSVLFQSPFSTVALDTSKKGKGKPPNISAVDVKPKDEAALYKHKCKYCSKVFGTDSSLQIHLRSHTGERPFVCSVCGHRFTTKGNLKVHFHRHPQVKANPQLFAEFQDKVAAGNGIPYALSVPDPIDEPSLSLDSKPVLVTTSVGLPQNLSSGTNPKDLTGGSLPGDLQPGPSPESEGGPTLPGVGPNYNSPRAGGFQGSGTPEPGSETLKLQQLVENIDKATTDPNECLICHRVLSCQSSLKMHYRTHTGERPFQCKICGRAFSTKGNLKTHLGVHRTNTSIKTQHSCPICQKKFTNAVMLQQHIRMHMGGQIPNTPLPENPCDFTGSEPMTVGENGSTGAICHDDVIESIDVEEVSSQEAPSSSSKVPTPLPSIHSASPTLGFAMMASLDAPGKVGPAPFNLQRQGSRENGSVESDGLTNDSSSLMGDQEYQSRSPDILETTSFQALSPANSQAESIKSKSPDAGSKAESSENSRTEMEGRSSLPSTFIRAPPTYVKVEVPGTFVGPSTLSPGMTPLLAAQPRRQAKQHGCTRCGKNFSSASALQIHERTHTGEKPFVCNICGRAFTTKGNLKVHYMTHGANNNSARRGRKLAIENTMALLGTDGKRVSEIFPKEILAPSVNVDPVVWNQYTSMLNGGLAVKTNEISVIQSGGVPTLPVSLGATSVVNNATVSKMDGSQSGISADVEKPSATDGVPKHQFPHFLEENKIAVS
Technique: universal PBM
Molecule type: double-stranded DNA, one strand shown
Sample: in vitro
Tested at: 600 nM
Notes: 8-mer, flanks averaged, mean of replicates
Direction: higher = stronger binding
Endpoint: E-score
TGCGGCAA: -0.0893
AGCAGTTG: -0.262
GATACACC: 0.081

Block 3
Target: Fragile X messenger ribonucleoprotein 1, C-terminal low-complexity region (Fmr1, Mus musculus, UniProt P35922)
Technique: RNA Bind-n-Seq
Molecule type: RNA
Sample: in vitro
Tested at: 200 nM
Notes: whole 134-nt RNA, ends assumed
Added: 150 mM LiCl
Baseline: input library
Direction: higher = stronger binding
Endpoint: log2 enrichment
Each molecule: 7-deaza-guanosine replaces G
GGGAGUUCUACAGUCCGACGAUCCAAGUCCUGUGCUACACAUCGUAUGUACCGAAUCGGUGGUUUUUUUGGAAAAAGGAAAGUAUUAUGUUACGCCGUUCGGAUCUGCACUUCUGGAAUUCUCGGGUGUCAAGG: -1.14
GGGAGUUCUACAGUCCGACGAUCAAGUCCUGUGCUACACAUCGUAUGUACCGAAUCGGGUUUGGGUUUUUUUGGGUGGGAAAGUAUUAUGUUACGCCGUUCGGAUCUGCACUUUGGAAUUCUCGGGUGUCAAGG: -1.05
GGGAGUUCUACAGUCCGACGAUCUGGGAGGUGGAUUUUGUUUAUUUUUUUAGCUCAUUUCCAUGGGUGGGAAUUUUUUUUUAAUAUGUGUCAUGAAUAAAGUUGUUUUUGAAAUGGAAUUCUCGGGUGUCAAGG: 0.392
GGGAGUUCUACAGUCCGACGAUCUGGGAGGUGGAUUUUGUUUAUUUUUUUAGCUCAUUUCCAGGGGUGGGAAUUUUUUUUUAAUAUGUGUCACGAAUAAAGUUGUUUUUGAAAUGGAAUUCUCGGGUGUCAAGG: 0.516

Further values, each from its own experiment
PhoQ, residues 284 288 289 292 302 303 AANNSF — fold induction (PhoP, residues 12 14 15 18 19 LHSVQ (Escherichia coli, UniProt P23836); Sort-seq, measured: YFP reporter; E. coli; PhoQ-PhoP variant library, added: 10 µM Mg2+; baseline: high Mg2+ state, higher = stronger signaling): 2.52
